Assay results pooled from the literature.
Each line is one published result; not all experiments were run side by side. Several values in a cell are separate wells, animals, samples, runs or records. ± marks the error that the study gave. In brackets after ≈: the same amount, converted by molar mass.
UniProt P46109, sequence (whole entry, looked up): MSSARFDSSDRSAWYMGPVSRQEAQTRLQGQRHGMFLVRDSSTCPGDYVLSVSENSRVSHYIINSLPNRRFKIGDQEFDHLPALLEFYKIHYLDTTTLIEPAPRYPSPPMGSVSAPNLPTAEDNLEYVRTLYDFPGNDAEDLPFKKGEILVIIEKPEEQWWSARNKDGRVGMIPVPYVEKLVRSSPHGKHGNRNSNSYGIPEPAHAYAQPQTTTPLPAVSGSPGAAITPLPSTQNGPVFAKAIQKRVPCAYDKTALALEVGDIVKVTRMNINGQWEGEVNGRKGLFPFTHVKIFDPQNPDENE

Structure (SMILES) | target or system | test | system | setting | scale | measurement | result
Cn1nccc1Nc1nccc(-c2ccn([C@H](CO)c3ccc(Cl)c(F)c3)c(=O)c2)n1 | HCT116 | IncuCyte | – | concentration not given, 48 (unit not given) | – | PI-positive cells | 21.9 count and 23.8 count and 14.2 count
C[C@@]12OC(=O)[C@]1([C@@H](O)[C@@H]1C=CCCC1)NC(=O)[C@@H]2CCCl | HEK293T ATF4-FLuc reporter | ATF4 reporter gene, activator, luciferase reporter | – | – | – | EC50 | 130 nM
Cn1c(COP(=O)(NCCBr)NCCBr)cnc1[N+](=O)[O-] | THP-1 | pyroptotic LDH release | – | 2 µM, 40 min, with: LPS then nigericin | – | inhibition | 46%
C=C(C)[C@@H]1CCC(C)=C[C@H]1c1c(O)cc(CCCCC)cc1O | human CATSPER2-/- sperm | fluorimetry | – | 10 µM | – | Ca2+ signal | inhibited
Cn1cncc1C1=CN(c2ncnc3[nH]cnc23)CCS1 | COLO 205 | – | – | colon cancer | – | CC50 | > 200000 nM
Oc1ccc(C2(c3ccc(O)cc3)c3ccccc3-c3ccccc32)cc1 | HepG2 spheroids | Hoechst flow cytometry | – | 0.1 µM, 24 h | – | G2 phase cells | 18.2 ± 5.72%
COc1c(C)c2c(c(O)c1C/C=C(\C)CCC(=O)O)C(=O)OC2 | SU-DHL-6 | cell proliferation | blood cancer | – | – | IC50 | 661 nM
O=C1N(Cc2ccccc2Cl)c2ccccc2C12NN=C(c1ccccc1)S2 (stereo not drawn) | MDA-MB-468 | gene expression array, refers to: TNIP1 mRNA | – | 10 µM, 12 h | baseline: untreated, up | fold change | 1.58
CC(C)[C@H](N)C(=O)N1CCC[C@H]1B(O)O | Ker-CT keratinocytes, CASP1 knockout | inducer, ELISA | – | concentration not given | – | IL-1β release | 9.83 pg/mL
C[C@@H]1O[C@@H](O[C@H]2C[C@@H](O)[C@]3(CO)[C@H]4[C@H](O)C[C@]5(C)[C@@H](C6=CC(=O)OC6)CC[C@]5(O)[C@@H]4CC[C@]3(O)C2)[C@H](O)[C@H](O)[C@H]1O | human iPSC cardiomyocytes | plate-normalised | – | concentration not given, hit retest | baseline: vehicle controls, SDs below control | MyBP-C level change | 13.7 SD
CC[C@H](C)[C@H]1O[C@]2(C=C[C@@H]1C)C[C@@H]1C[C@@H](C/C=C(\C)[C@@H](O[C@H]3C[C@H](OC)[C@@H](O[C@H]4C[C@H](OC)[C@@H](O)[C@H](C)O4)[C@H](C)O3)[C@@H](C)/C=C/C=C3\CO[C@@H]4[C@H](O)C(C)=C[C@@H](C(=O)O1)[C@]34O)O2 | THP-1 | pyroptotic LDH release | – | 2 µM, 40 min, with: LPS then nigericin | – | inhibition | 10.4%
COc1ccc2c(c1)[nH]c1c(C)nccc12 | DU-145 | bisulfite pyrosequencing, refers to: RASSF1A promoter CpG site 32 | – | concentration not given | baseline: vehicle | methylation reduction | 0.2%
COC(=O)NC(=S)Nc1ccccc1NC(=S)NC(=O)OC | THP-1 | pyroptotic LDH release | – | 2 µM, 40 min, with: LPS then nigericin | – | inhibition | 2.3%
CC(C)N1CCC(NC2CCN(c3cccc(-c4cc5cc(F)ccc5[nH]4)c3)CC2)CC1 | ACHN | – | – | – | – | CC50 | 6030 nM
CC(C)(C)c1cc(C=C(C#N)C#N)cc(Br)c1O | hCMEC/D3 | outcome: decreased, Western blot, refers to: Akt (Ser473) | – | 100 µM, no insulin | – | phosphorylation | decreased
CCN(CC)c1ccc(C=NNC(=O)CSc2nc3ccccc3c(=O)n2Cc2ccc(S(N)(=O)=O)cc2)c(O)c1 | Malme-3M | NCI five-dose screen | – | – | – | CC50 | > 100000 nM
COc1cc2c(Oc3ccc4[nH]c(C)cc4c3F)ccnc2cc1OCC1(N)CC1 | – | – | paediatric refractory sarcoma patients | 10 mg | – | Myalgia incidence | 25%
O=c1cc(-c2ccc(O)cc2)oc2cc(O)cc(O)c12 | SH-SY5Y Aβ-GFP cells | Aβ folding | – | 1 to 5 µM | baseline: untreated induced cells | GFP fluorescence | 115 to 152%

Structure (SMILES) | target or system | test | system | setting | scale | measurement | result
C[C@H]1CN(c2n[nH]c3nc(N[C@H]4CC[C@H](NS(=O)(=O)CCC(F)(F)F)CC4)ncc23)CCO1 | Crk-like protein (Homo sapiens, UniProt P46109) | competitor, Kinobeads competition | human cell extract | 0.16 µM | baseline: vehicle | relative abundance | 1.03
C[C@@H](O)[C@H]1C(=O)N2C(C(=O)O)=C(S[C@@H]3CN[C@H](C(=O)N(C)C)C3)[C@H](C)[C@H]12 | Escherichia coli DH5α expressing KPC-180 | bacterial growth | – | – | – | MIC | 0.5 µg/mL (≈ 1.3 µM)
Oc1ccc(C(c2ccc(O)cc2)(C(F)(F)F)C(F)(F)F)cc1 | HepG2 spheroids | Hoechst flow cytometry | – | 40 µM, 24 h | – | S phase cells | 6.57 ± 1.44%
Nc1ccn([C@@H]2O[C@H](CO)[C@@H](O)C2(F)F)c(=O)n1 | human coronavirus OC43 | virus-induced cell killing | MRC-5 | maximum over 10 doses | – | maximum inhibition | 0%
C[C@]12CC[C@H](O)C[C@H]1CC[C@@H]1[C@@H]2CC[C@]2(C)[C@@H](c3ccc(=O)oc3)CC[C@]12O | MCF7 with control siRNA | annexin V flow cytometry | – | concentration not given, 48 h | – | apoptotic cells | 17.2% and 15.4% and 16%
CN1CCN(C2(CNC3CCN(c4cccc(-c5cc6cc(F)ccc6[nH]5)c4)CC3)CCC2)CC1 | COLO 205 | – | – | – | – | GI50 | 1130 nM
C/C=C(/C)C(=O)O[C@H]1C(C)=C2[C@H]([C@@H]1OC(=O)CCCCCCC)[C@@](C)(OC(C)=O)C[C@H](OC(=O)CCC)[C@@]1(O)[C@H]2OC(=O)[C@@]1(C)O | HEK293T | RNA-seq, refers to: CLU mRNA | – | 10 µM, 6 h | baseline: vehicle | log2 fold change | -0.0535
Cc1cc(C(C)(C)c2ccc(O)c(C)c2)ccc1O | HepG2 spheroids | Hoechst flow cytometry | – | 1 µM, 96 h | – | G1 phase cells | 72.8 ± 8.34%
Nc1ncc(-c2nc(N3CCOCC3)nc(N3CCOCC3)n2)c(C(F)F)n1 | 769-P | – | – | 72 h | – | GI50 | 267 nM
Cc1cnc2ccc3c(nc(N)n3C)c2n1 | BALB/c 3T3 | colony formation | – | 5 µM | – | plating efficiency | 46%
Nc1ncnc2c1ncn2[C@@H]1O[C@@H]2COP(=O)(O)O[C@H]3[C@@H](O)[C@H](n4cnc5c(=O)[nH]cnc54)O[C@@H]3COP(=O)(O)O[C@H]2[C@H]1O | HFF-1 | RNA sequencing, refers to: Reactome ISG antiviral mechanism | – | upregulated pathways | baseline: mock | fold enrichment | 11.5
CC(CCc1ccccc1)NC(C)C(O)c1ccc(O)cc1 (stereo not drawn) | MDA-MB-231 BAX/BAK siRNA knockdown | cell viability, CellTiter-Glo | – | – | direction not given | Z score | 1.41
COc1cc(C[C@@H](C)[C@@H](C)Cc2cc(O)c(OC)c(OC)c2)cc(O)c1OC | THP-1, PMA-differentiated | – | – | 10 µM, 24 h, with: LPS 1 µg/mL | baseline: LPS model | IL-6 mRNA level | decreased
N.N.[Cl][Pt][Cl] | human normal skin fibroblasts | cell viability, Alamar Blue | – | dark | – | EC50 | 2600 nM
COc1c(CCC[P+](c2ccccc2)(c2ccccc2)c2ccccc2)cc2c(c1OC)OCO2.[I-] | OVCAR-5 | SRB | – | – | – | LC50 | > -4 log M
CC[C@H](C)[C@@H]1NC(=O)[C@@H]2CCCN2C(=O)[C@H](CC(C)C)NC(=O)[C@H](CC(C)C)NC(=O)CNC(=O)[C@@H](NC(=O)[C@@H](NC(=O)[C@H](CC(=O)O)NC(=O)CNC(=O)[C@@H](NC(=O)[C@H](C)NC(=O)CNC(=O)[C@H](CCCCN)NC(=O)[C@H](CC(C)C)NC(=O)[C@H](CC(C)C)NC(=O)[C@H](CCCCN)NC(=O)CNC(=O)[C@@H](NC(=O)[C@@H](N)CC(C)C)C(C)C)C(C)C)C(C)C)CSSC[C@@H](C(=O)O)NC1=O | – | RNA-seq, refers to: S100a11 mRNA | mouse traumatic brain injury, frontal cortex and hippocampus | dose not given | baseline: TBI plus compound vs TBI | log2 fold change | -2.24
COc1cc(CCC[P+](c2ccccc2)(c2ccccc2)c2ccccc2)c(OC)c2c1OCO2.[I-] | KM12 | SRB | – | – | – | GI50 | -6.08 log M
Cc1ccc([C@@H]2O[C@H](CO)[C@@H](O)[C@H](O)[C@H]2O)cc1Cc1ccc(-c2ccc(F)cc2)s1 | human coronavirus OC43 | virus-induced cell killing | MRC-5 | maximum over 10 doses | – | maximum inhibition | 0%

Excerpt of the above:
Structure (SMILES) | target or system | test | system | setting | scale | measurement | result
Oc1ccc(C2(c3ccc(O)cc3)c3ccccc3-c3ccccc32)cc1 | HepG2 spheroids | Hoechst flow cytometry | – | 0.1 µM, 24 h | – | G2 phase cells | 18.2 ± 5.72%
Cc1ccc([C@@H]2O[C@H](CO)[C@@H](O)[C@H](O)[C@H]2O)cc1Cc1ccc(-c2ccc(F)cc2)s1 | human coronavirus OC43 | virus-induced cell killing | MRC-5 | maximum over 10 doses | – | maximum inhibition | 0%
